Measurements pooled from the literature.
Each numbered part is a random draw from the data of one study; scales do not carry over between parts.

Block 1
Target: Histone acetyltransferase KAT6A, winged helix 2, GST fusion (KAT6A, Homo sapiens, UniProt Q92794, residues 85-181)
Technique: protein binding microarray
Molecule type: double-stranded DNA, one strand shown
Matrix: in vitro
Tested at: not given
Notes: 8-mer, flanks averaged, mean of 2 arrays, mostly near background
Baseline: not given
Direction: higher = stronger binding
Construct (chain): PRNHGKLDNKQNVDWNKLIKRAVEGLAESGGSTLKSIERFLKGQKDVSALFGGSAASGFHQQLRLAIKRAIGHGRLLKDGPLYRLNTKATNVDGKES
Strand | E-score
TAAGCTCA | -0.0381
CTTAGCGC | 0.109
CGCCTTAC | -0.0672
ATTGGGCG | 0.051
GACTCGCC | -0.0763
ATATCGAA | 0.107
ATAGTGTA | -0.0956
CGATTCGA | 0.159
TAATGAGA | -0.126
GGTGATGA | -0.124
CTGTATGA | -0.0261
TGTCGACA | -0.17
CGGCATAC | 0.105
AAATAATA | 0.136
GCAATTGC | 0.138
CTTTGAAC | 0.0526
ACCATTGG | 0.0244
GCGGCCTA | -0.0962
TACGCTAA | -0.0798
TAGTATAA | 0.195
GCCAGGGC | 0.0605
CACTCTAC | -0.0545
CGAAGTAG | 0.189
AAGAGTCA | -0.119
AGCTTTGA | 0.0745

Block 2
Target: Interferon regulatory factor 3, full length, phosphomimetic (IRF3, Homo sapiens, UniProt Q14653, residues 1-427, S386D/S396D/S398D/S402D/T404D/S405D)
Technique: protein-binding microarray
Molecule type: double-stranded DNA, one strand shown
Matrix: in vitro
Tested at: 2540 nM top
Notes: 60-bp whole probe
Together with: salmon DNA 0.4 mg/ml
Baseline: random background probes
Direction: higher = stronger binding
Shared flanks, not repeated: GCCTAGCAC … GTCTTGATTCGCTTGACGCTGCTG
Residues (chain): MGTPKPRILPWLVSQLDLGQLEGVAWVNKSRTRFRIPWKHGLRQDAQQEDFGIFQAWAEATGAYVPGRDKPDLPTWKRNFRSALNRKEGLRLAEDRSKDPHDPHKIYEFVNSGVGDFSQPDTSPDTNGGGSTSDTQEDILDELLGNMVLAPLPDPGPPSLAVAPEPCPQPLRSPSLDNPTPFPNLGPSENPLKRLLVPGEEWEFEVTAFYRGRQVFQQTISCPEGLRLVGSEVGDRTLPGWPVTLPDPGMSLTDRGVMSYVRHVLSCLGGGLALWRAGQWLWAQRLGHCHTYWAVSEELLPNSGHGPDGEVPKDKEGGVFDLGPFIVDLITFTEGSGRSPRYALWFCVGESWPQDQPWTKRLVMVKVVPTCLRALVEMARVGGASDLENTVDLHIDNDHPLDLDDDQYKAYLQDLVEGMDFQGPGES
Strand | fitted relative affinity [z-score]
TCAGAAATCAGTATGTTACTGTGCTAG | 0.236
TCCAGTCTGGGAGATGAAGCGGTGCTA | 0.149
CAGGTTTTGCTAAGTCAACTGGTGCTA | 0.314
GACGATCTCAGGCTCGAGACGTGCTAG | 0.0895
GAGCAGAGGCTGATGTATGTGTGCTAG | -1.02
TCACATTTCTGTTTTTGACTGTGCTAG | 2.57
GTGTGTGTCTGATTATTTACGTGCTAG | 0.461
TTTTTTTTCACTATTGCTTCGTGCTAG | 2.18
TTAGGTCTCCTAATCCTTTAGTGCTAG | 1.94
GTTCTTTTCTGTTGTCTGTGTGTGCTA | 2.62
TTAGGTATCCTTACCCTTTAGTGCTAG | 4.04
TTAGGTATCCTTATCGTTTAGTGCTAG | 5.78
GCCGGACTGGGTTTCGGGACGTGCTAG | 1.49
TTCGAACTGAGTTTCGATTAGTGCTAG | 2.83
GACGGTTTTGGGTTTCGGGACGTGCTA | 2.65
TCACTTTTGCTAATTTTACTGTGCTAG | 1.11

Block 3
Target: RNA binding protein fox-1 homolog 2, RRM domain, GST-SBP tag (RBFOX2, Homo sapiens, UniProt O43251-10, residues 100-194)
Technique: RNA Bind-n-Seq
Molecule type: RNA
Matrix: in vitro
Tested at: 365 nM
Notes: natural RNA segment, single round, ends assumed
Baseline: no-protein control
Direction: higher = stronger binding
Shared flanks, not repeated: GGGAGUUCUACAGUCCGACGAUC … UGGAAUUCUCGGGUGCCAA
Target sequence (chain): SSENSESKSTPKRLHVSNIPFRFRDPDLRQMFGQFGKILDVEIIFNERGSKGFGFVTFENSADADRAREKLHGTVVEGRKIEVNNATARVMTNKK
Strand | RBNS enrichment (R)
UCCGUAUUGUGAAGGAACCUCUUAAAUGGAACACUAAAAGACUUGAAACUGAGGGGCAAGAUAACCCCCACAUGACACGUGACAUCACUUUGGGGACAGCCCAGUUGCCA | 0.653
UGGAUUGCCUAACUACACUGCUAAAAAUAUUUGUAAUCCUUAAUAAUUAAACUUUGGAUUUGUUAAAUACUGCCUUGAUGUGAAGGAGGGGAAUUAAGGUUUCCAUAAGG | 0.451
CCCCACUAAGCUGAAGGCCCCCUGGGGGAGGGGGAAGCAUGGUCCUUAUCAUCUGCCCUAUCUUGCCCCUUCCUGUGGAGUGGGCAGAAGGGCUCCCGGGAUCCUCAGAG | 3.75
UGGCUAACCGCCUCUUAGCCCACGGUUACCCAGUCAUUUGUCUCAGUUAACAUUUAAAGGAGUUUUUGUGAGACAAAUUCUCCAUUGUGAGAUCUCUGAAGUGGGAUUGU | 0.35
GAGCGAGAGAGAGUGAGGACACCGAACUGGGCUGGCGGCUCCAAAGCACAGCCUUCCCUGUUCCGUCCCAGCGGGAGCUGGUGUUAGGGGUCCCAAGGUUGCCACCCACG | 0.274
GAUCAGCUGUUCUUAGAUGCUGGUGGGCAUUUGAACAUGCUCCUCCAUGAUUCUGAAGCAUGCACACCUCUGAAGACCCCUGCAUGAAAAUAACCUCCAAGGACCCUCUG | 16.8
GUGAGUUUUCACAUCCCUGCAUCUUCUGCUUUGCAAUGAAGGUUCUGUCGGUGAGGCCUUCUCUAAUGCAGUAUUCAUGAUGUUCUCAUUCAUGUUCUCAUUCAUGAUGU | 0.494
CAUUCAUAUACCAUUUUAUGAGUUCUGUAUAAUUUUUUGUGGUUUUUGUUUUGUUGAGUUAAAGUAUAUUAUUGUGAGAUUUAUUUAAUAGGACUUCCUUUGAAAGCUGU | 1.2
GGAUUCUGGGGGAAGGAGAGAAGGGCAGCUCAGGGUGGAUGUGAAGCCACCCUUCCUCUUCUGGACCCAGCCUGGUCUGCACUGCAACCUCCACCAGGACCAGGAUCCUG | 0.757
AAAGCCAGCAGAAAAGAAAUGUGCCUGCUAGACACUCAGAGGAACCAGUGAUGGAGAGCCCACCCAAGUCCGACGUCCUGAGACAAUGUCAAACCAUGAUGUUGUCAUUG | 0.321
GUUUGUGGUAAGGUAGCCACACCUGGAGCUCACGUGUAACCUGGAGCGCUGUGCUACCAGUAGCUUUGGGGUUUUGGAAGCAGACACACCAAAGCCGAGCAUCAUAGAGA | 0.316
UGUAUUAUUUUCCUAUAUCCUUGGUUCUUUUCUGAUAAUUUACAGAUUUAGCUUUUCUUUUGUUAUAUAAACUGCUAGCCACAAAUUUUAGUUAUGUAAAAGGCUACCCU | 1.33

Block 4
Target: Prothrombin, mature alpha-thrombin (F2, Homo sapiens, UniProt P00734)
Technique: aptamer microarray, sandwich
Molecule type: DNA with 2'F-ANA
Matrix: in vitro
Tested at: 200 nM
Notes: whole 15-mer aptamer, many near background
Together with: Cy3 exosite-II aptamer, 400 nM
Direction: higher = stronger binding
Strand: GGTTGGTGTGGTTGG
Modification | mean fluorescence intensity [a.u.]
2'F-ANA at 2 4 5 6 7 9 15 | 63.8
2'F-ANA at 3 5 10 14 15 | 53.3
2'F-ANA at 3 5 6 7 8 9 12 13 14 | 58.1
2'F-ANA at 1 2 4 5 6 8 9 10 11 13 15 | 50.9
2'F-ANA at 1 3 6 7 8 10 | 86.4
2'F-ANA at 3 6 8 12 13 | 1250
2'F-ANA at 3 4 6 12 14 15 | 355
2'F-ANA at 1 3 4 10 11 14 15 | 96.2
2'F-ANA at 2 3 4 7 9 11 12 13 15 | 521
2'F-ANA at 1 2 3 5 6 7 13 14 | 60
2'F-ANA at 2 3 4 5 7 8 9 11 12 14 | 50.9
2'F-ANA at 1 4 6 8 10 11 12 13 14 | 44.7
2'F-ANA at 1 3 4 7 10 11 13 15 | 56.7
2'F-ANA at 1 3 6 8 9 11 14 15 | 123
2'F-ANA at 1 4 10 12 13 | 89.6
2'F-ANA at 4 5 8 9 10 13 14 15 | 153
2'F-ANA at 1 2 6 7 10 15 | 53
2'F-ANA at 3 6 7 8 9 10 | 517
2'F-ANA at 1 2 4 6 15 | 124
2'F-ANA at 3 5 8 9 10 11 12 13 15 | 61.5

Block 5
Target: Sal-like protein 4, full length isoform A (SALL4, Homo sapiens, UniProt Q9UJQ4, residues 1-1053)
Sequence of UniProt Q9UJQ4 (whole entry, looked up): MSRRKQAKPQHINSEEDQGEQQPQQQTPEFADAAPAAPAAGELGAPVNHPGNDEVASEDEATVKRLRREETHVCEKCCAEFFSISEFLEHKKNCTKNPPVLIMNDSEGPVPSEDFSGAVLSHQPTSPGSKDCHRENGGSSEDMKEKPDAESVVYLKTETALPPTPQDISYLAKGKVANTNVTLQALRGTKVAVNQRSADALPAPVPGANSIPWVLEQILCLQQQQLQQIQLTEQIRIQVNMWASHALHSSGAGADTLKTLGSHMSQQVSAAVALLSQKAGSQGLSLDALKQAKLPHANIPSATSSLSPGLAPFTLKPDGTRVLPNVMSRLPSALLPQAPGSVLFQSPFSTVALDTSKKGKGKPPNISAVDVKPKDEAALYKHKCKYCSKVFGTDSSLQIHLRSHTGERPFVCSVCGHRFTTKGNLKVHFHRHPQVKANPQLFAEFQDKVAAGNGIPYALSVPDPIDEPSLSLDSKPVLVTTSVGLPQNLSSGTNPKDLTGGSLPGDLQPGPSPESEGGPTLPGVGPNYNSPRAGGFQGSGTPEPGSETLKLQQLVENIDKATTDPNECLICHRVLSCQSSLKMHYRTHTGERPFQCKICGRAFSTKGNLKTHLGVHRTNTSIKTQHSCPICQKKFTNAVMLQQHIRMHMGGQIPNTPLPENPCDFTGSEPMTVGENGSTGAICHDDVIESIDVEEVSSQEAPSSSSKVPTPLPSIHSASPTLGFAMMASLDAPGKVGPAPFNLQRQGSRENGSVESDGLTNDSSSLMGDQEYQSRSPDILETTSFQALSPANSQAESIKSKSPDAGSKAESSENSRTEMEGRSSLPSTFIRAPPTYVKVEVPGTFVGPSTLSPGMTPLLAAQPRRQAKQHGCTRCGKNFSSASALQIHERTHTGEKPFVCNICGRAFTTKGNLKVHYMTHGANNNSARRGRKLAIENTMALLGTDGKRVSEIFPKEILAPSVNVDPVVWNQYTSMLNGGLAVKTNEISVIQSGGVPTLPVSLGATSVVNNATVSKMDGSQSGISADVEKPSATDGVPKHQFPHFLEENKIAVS
Technique: universal PBM
Molecule type: double-stranded DNA, one strand shown
Matrix: in vitro
Tested at: 600 nM
Notes: 8-mer, flanks averaged, mean of replicates
Direction: higher = stronger binding
Strand | E-score
CCCGTCTA | -0.181
GCAAAACC | -0.0422
CAGAAGAC | -0.0413
TCTCAGAA | 0.136
CTGTACAC | 0.059
CTAGTTCA | 0.0786
CATCAAGC | -0.0798
CTGCCGCA | -0.205
CTGCGACA | -0.116
CCTTACCG | -0.158
CAATGCAA | 0.115
TACTGAGA | -0.0721
AAATTAGG | 0.197
CCTGACCG | -0.214
CGAAATTA | 0.271
GGCCGTCA | -0.249
AGCCCCCA | -0.325
ACTTCGGC | -0.0983
GCCCGACA | -0.239
CCGCGAGG | -0.347
GCCGCCCA | -0.435
CTAAAAGC | -0.216

Block 6
Target: PABPC1L2, full length, GST fusion (mouse, UniProt A0ABA7IW68)
Technique: RNAcompete
Molecule type: RNA
Matrix: in vitro
Tested at: 20 nM
Notes: 7-mer, probes averaged, single round
Baseline: mean of 7-mers
Direction: higher = stronger binding
Residues (chain): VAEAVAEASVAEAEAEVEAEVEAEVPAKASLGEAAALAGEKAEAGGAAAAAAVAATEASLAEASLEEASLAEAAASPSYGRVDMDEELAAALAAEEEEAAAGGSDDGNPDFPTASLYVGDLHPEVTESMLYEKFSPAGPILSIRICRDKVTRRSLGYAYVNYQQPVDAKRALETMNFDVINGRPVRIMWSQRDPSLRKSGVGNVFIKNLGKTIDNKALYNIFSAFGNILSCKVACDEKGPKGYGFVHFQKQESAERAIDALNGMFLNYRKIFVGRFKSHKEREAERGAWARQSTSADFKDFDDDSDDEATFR
Strand | 7-mer Z-score
AUGGAGG | 0.166
UCGCUGA | -0.179
UGGAUGU | -0.0264
CAGCGGG | 0.231
GCCCGAA | 0.258
CGAUGUC | -0.206
UACAAUU | -0.0826
CUACCUC | -0.351
UUCGCUU | -0.499
AAGCCAU | -0.0663
CGAUAAC | -0.115
UCUCAAU | -0.204
GCAAUGU | -0.113
GGUAGCA | 0.131
AACUGCU | -0.0554
GUGGCCA | -0.132
AGGAAUA | 0.0406
CAGAGAU | -0.0246
CCCUAAA | 0.695
GAUGGUG | -0.0663
AGCAAUA | 0.119
GGAGAAG | 0.157
GUCGGUG | -0.0681
GCUUAGU | -0.219
CGGAUCC | -0.0645

Excerpt of the above (block 4):
Modification | mean fluorescence intensity [a.u.]
2'F-ANA at 1 3 6 7 8 10 | 86.4
2'F-ANA at 3 6 8 12 13 | 1250
2'F-ANA at 3 4 6 12 14 15 | 355
2'F-ANA at 1 3 4 10 11 14 15 | 96.2
2'F-ANA at 2 3 4 7 9 11 12 13 15 | 521
2'F-ANA at 1 2 3 5 6 7 13 14 | 60
2'F-ANA at 2 3 4 5 7 8 9 11 12 14 | 50.9
2'F-ANA at 1 4 6 8 10 11 12 13 14 | 44.7
2'F-ANA at 1 3 4 7 10 11 13 15 | 56.7
2'F-ANA at 1 3 6 8 9 11 14 15 | 123
2'F-ANA at 1 4 10 12 13 | 89.6
2'F-ANA at 4 5 8 9 10 13 14 15 | 153
